Measurements from different studies.
Numbers after ± are the reported error.

COC(=O)C1CN1S(=O)(=O)c1ccc(C)cc1 (stereo not shown) has an IC50 of 30 µM (Caco-2; cell growth or viability, MTT; 48 h).
For C[C@@H](N)[C@H](O)CCCCCCCC(=O)CCCCCCCCCCCCCC[C@@H](O[C@@H]1O[C@H](CO)[C@H](O)[C@H](O)[C@H]1O)[C@H](N)CO, the IC50 was 5.77 µM (HCC70; cell growth or viability, resazurin; 96 h).
CC1=CC(C)=[N+]2C1=Cc1ccc(CCC(=O)NCC3C[NH][Pt]([Cl])([Cl])[NH]3)n1[B-]2(F)F (stereo not shown) has an IC50 of 141 ± 6.6 µM (KB-3-1 spheroids in 3D Matrigel; cytotoxicity, CellTiter-Glo; 4 days, pre-grown 4 days).
With CC[C@H](C)[C@H](NC(=O)[C@@H](N)Cc1ccc(O)cc1)C(=O)N[C@@H](Cc1ccccc1)C(=O)N[C@@H](CC(N)=O)C(=O)N[C@@H](CC(C)C)C(=O)O the IC50 was 7e-05 µM (T47D; cell proliferation, tetrazolium).
For O=C(Cc1ccc2ccccc2c1)N[C@H](Cc1ccc(O)cc1)C(=O)N[C@H](Cc1ccccc1)C(=O)N[C@H](Cc1ccccc1)C(=O)N[C@H](Cc1ccc(OP(=O)(O)O)cc1)C(=O)O, the IC50 was 283 µg/mL (SAOS-2; cell growth or viability, MTT).
O=C1[O][Pt]2([OH])([OH])([NH]C3CCCCC3[NH]2)[O]C1=O (stereo not shown) has an IC50 of over 100 µM (MDA-MB-157; cell growth or viability, resazurin; 72 h).
O=C(Nc1ccc(Br)cc1)c1cc(Br)cc(Br)c1O has an IC50 of 10.2 µM (PANC-1; cell growth or viability, resazurin; 72 h).
With CC[C@H](C)[C@@H]1NC(=O)[C@@H]2CCCN2C(=O)[C@@H]2CCCN2C(=O)[C@H]([C@@H](C)CC)NC(=O)[C@H](CO)NC(=O)[C@H](CCCCN)NC(=O)[C@H]([C@@H](C)O)NC(=O)[C@@H]2CSSC[C@H](NC1=O)C(=O)N[C@@H](Cc1ccccc1)C(=O)N1CCC[C@H]1C(=O)N[C@@H](CC(=O)O)C(=O)NCC(=O)N[C@@H](CCCNC(=N)N)C(=O)N2 the IC50 was over 100 µM (Calu-3; cell growth or viability, ATP luminescence; 72 h).
For Oc1c(CN(Cc2ccccn2)Cc2ccccn2)cc(CCn2cc(COCCOCCOCCOCc3cn(CCc4cc(CN(Cc5ccccn5)Cc5ccccn5)c(O)c(CN(Cc5ccccn5)Cc5ccccn5)c4)nn3)nn2)cc1CN(Cc1ccccn1)Cc1ccccn1, the IC50 was over 100 µM (CHO-K1; cytotoxicity; 72 h).
For CC[C@H](C)[C@H](NC(=O)[C@H](CCCNC(=N)N)NC(=O)[C@H](CCCNC(=N)N)NC(=O)[C@H](CCCNC(=N)N)NC(=O)[C@@H](NC(=O)[C@@H](NC(=O)[C@H](C)NC(=O)[C@H](CCCNC(=N)N)NC(=O)[C@H](CCCNC(=N)N)NC(=O)[C@H](CCCNC(=N)N)NC(=O)[C@@H]1CCCN1C(=O)[C@@H](N)CCCNC(=N)N)[C@@H](C)O)[C@@H](C)O)C(=O)N[C@H](C(=O)N[C@H](C(=O)NCC(=O)N[C@H](C(=O)N[C@@H](CCCNC(=N)N)C(=O)N[C@@H](CCCNC(=N)N)C(=O)N[C@@H](CCCNC(=N)N)C(=O)N[C@@H](CCCNC(=N)N)C(N)=O)[C@@H](C)O)[C@@H](C)O)[C@@H](C)O, the IC50 was 71.2 ± 1.1 µM (SK-BR-3; cell viability, CellTiter-Blue; 24 h, serum-free medium).
With O=C(C[P+]([Au-][Cl])(c1ccccc1)c1ccccc1)[O][Ti+2][O]C(=O)C[P+]([Au-][Cl])(c1ccccc1)c1ccccc1.c1cc[cH-]c1.c1cc[cH-]c1 the IC50 was 6 µM (CAKI-1; cell viability, XTT; 24 h).
CNC(=O)c1cc(Oc2ccc(NC(=O)c3cc(-c4ccc(OC(=O)CCC(=O)OC5OC6OC7(C)CCC8C(C)CCC(C5C)C68OO7)cc4)ccn3)cc2)ccn1 (stereo not shown) has an IC50 of 12.2 µM (Huh-7; cell growth or viability, MTT; 72 h).
Cc1cc(C)c(-n2ccn(-c3c(C)cc(C)cc3C)c2=[Se])c(C)c1.[Cl][Ag] gave an IC50 of 0.9 ± 0.1 µM (LoVo-OXP (oxaliplatin-resistant); MTT; 72 h).
With Cc1ccc(C(c2c(C)nn(-c3ccccc3)c2O)c2c(C)nn(-c3ccccc3)c2O)cc1 the IC50 was over 40 µM (Ishikawa; cell growth or viability, MTT; 48 h).
For CC1=C2[C@@H](O)[C@H](C(=O)O)CC[C@@]2(C)CCC1=O, the IC50 was over 10 µM (human Neutrophil; superoxide release, inhibitor, absorbance).
CC[C@H](C)[C@H](NC(=O)CNC(=O)[C@H](C)NC(=O)[C@@H]1CCCN1C(=O)CNC(=O)[C@H](C)NC(=O)[C@H](CCC(=O)O)NC(=O)[C@H](C)NC(=O)[C@H](CC(=O)O)NC(=O)[C@H](C)NC(=O)[C@H](CCC(=O)O)NC(=O)[C@H](C)NC(=O)[C@H](CCC(=O)O)NC(=O)[C@@H]1CCCN1C(=O)[C@H](CCC(=O)O)NC(=O)CNC(C)=O)C(=O)NCC(=O)N[C@@H](C)C(=O)N[C@H](C(=O)N[C@@H](CC(C)C)C(=O)N[C@@H](CCCCN)C(=O)N[C@H](C(=O)N[C@@H](CC(C)C)C(=O)N[C@H](C(=O)N[C@H](C(=O)NCC(=O)N[C@@H](CC(C)C)C(=O)N1CCC[C@H]1C(=O)N[C@@H](C)C(=O)N[C@@H](CC(C)C)C(=O)N[C@H](C(=O)N[C@@H](CO)C(=O)N[C@@H](Cc1c[nH]c2ccccc12)C(=O)N[C@H](C(=O)N[C@@H](CCCCN)C(=O)N[C@@H](CCCNC(=N)N)C(=O)N[C@@H](CCCCN)C(=O)N[C@@H](CCCNC(=N)N)C(=O)N[C@@H](CCC(N)=O)C(=O)N[C@@H](CCC(N)=O)C(N)=O)[C@@H](C)CC)[C@@H](C)CC)[C@@H](C)O)[C@@H](C)O)C(C)C)C(C)C gave an IC50 of 47.9 ± 2.9 µM (MCF7 vector control (FAP-negative); cell viability, MTT; 72 h).
[Cl][Au].[Se]=c1n(C2CCCCC2)ccn1C1CCCCC1 has an IC50 of 5.3 ± 0.1 µM (H157 spheroids; acid phosphatase; 72 h, 3D spheroid).
The IC50 of CC[C@@H](C)[C@@H](NC(=O)[C@@H](CCCCN)NC(=O)[C@H](NC(=O)[C@@H](CCC(N)=O)NC(=O)[C@@H](CCCNC(=N)N)NC(=O)[C@@H](CC(C)C)NC(=O)CNC(=O)[C@@H](Cc1ccccc1)NC(=O)CNC(=O)[C@@H](Cc1ccc(O)cc1)NC(=O)CNC(=O)[C@@H](CCCCN)NC(=O)[C@H](NC(=O)[C@@H](Cc1ccccc1)NC(=O)[C@H](NC(=O)[C@@H](CC(=O)O)NC(=O)[C@H](N)CCCNC(=N)N)C(C)C)[C@H](C)O)[C@H](C)CC)C(=O)N[C@H](Cc1c[nH]c2ccccc12)C(=O)N[C@H](Cc1ccccc1)C(=O)N[C@H](CCC(N)=O)C(=O)N[C@H](CC(N)=O)C(=O)N[C@H](CCCNC(=N)N)C(=O)N[C@H](CCCNC(=N)N)C(=O)N[C@H](CCSC)C(=O)N[C@H](CCCCN)C(=O)N[C@H](Cc1c[nH]c2ccccc12)C(=O)N[C@H](CCCCN)C(=O)N[C@H](CCCCN)C(=O)O is reported as 1.3 µM (CLL patient PBMCs; cell death, PI staining flow cytometry; 90 min, room temperature, serum-free medium).
For Cc1nn(-c2ccccc2)c(O)c1C(c1cccs1)c1c(C)nn(-c2ccccc2)c1O, the IC50 was over 40 µM (Ishikawa; cell growth or viability, MTT; 48 h).
COc1c(Oc2c(O)c(OC)c(OC)c3c2ccc2cc(O)ccc23)cc2c(c1OC)-c1ccc(O)cc1CC2 has an IC50 of 21.8 µM (EA.hy 926; cell growth or viability, CCK-8; 24 h).
C[C@@H]1CCC2[C@@H](C)[C@@H](OCCC[P+](c3ccccc3)(c3ccccc3)c3ccccc3)O[C@@H]3O[C@@]4(C)CCC1[C@@]23OO4 (stereo partly shown) gave an IC50 of 0.134 µM (OVCAR-3; cell growth or viability, MTT; 72 h).
Cc1cc(C)c(N2CCN(c3c(C)cc(C)cc3C)C2=[Se])c(C)c1.[Cl][Ag] gave an IC50 of 1.2 µM (PSN1; cell growth or viability, MTT; 72 h).
C=C(C(=O)OC)[C@@H]1CC[C@@]2(C)CCC(=O)C(C)=C2C1 gave an IC50 of over 10 µM (human Neutrophil; superoxide release, inhibitor, absorbance).
With CC(C)OC(=O)C(n1cccn1)n1cccn1.F[P-](F)(F)(F)(F)F.[Cu+].c1ccc(P(c2ccccc2)c2ccccc2)cc1 the IC50 was 17.3 µM (PSN1; cell growth or viability, MTT; 72 h).
COc1cccc2c1C(=O)c1c(O)c3c(c(O)c1C2=O)CC(O)(C(=O)CO)CC3OC1CC(NC(=O)OC2C=CCCC(C)(C(=O)NCC(=O)O)CC2)C(O)C(C)O1 (stereo not shown) gave an IC50 of 1.9 µM (MC-38; cell growth or viability, MTT; 24 h).
The IC50 of COc1cc(C(c2c(C)nn(-c3ccccc3)c2O)c2c(C)nn(-c3ccccc3)c2O)cc(OC)c1OC is reported as over 40 µM (Ishikawa; cell growth or viability, MTT; 48 h).
CC(C)C[C@H](NC(=O)[C@H](CCC(N)=O)NC(=O)[C@@H]1CSSC[C@@H]2NC(=O)[C@H](CC(N)=O)NC(=O)[C@@H](NC(=O)[C@@H](CCCNC(=N)N)NC(=O)[C@@H](CCCNC(=N)N)NC(=O)[C@@H](CCCNC(=N)N)NC(=O)[C@@H](CCCNC(=N)N)NC(=O)[C@@H](CCCNC(=N)N)NC(=O)[C@@H](CCCNC(=N)N)NC(=O)[C@@H](CCCNC(=N)N)NC(=O)[C@@H](CCCNC(=N)N)NC(=O)[C@H](N)CCCNC(=N)N)CSSC[C@H](NC(=O)[C@H](Cc3ccccc3)NC(=O)[C@H](C)NC(=O)[C@H]([C@@H](C)O)NC(=O)[C@H](CCC(=O)O)NC(=O)[C@@H]3CCCN3C(=O)[C@H](C)NC(=O)[C@H](CCCCN)NC2=O)C(=O)N[C@@H](C)C(=O)N[C@@H](Cc2ccc(O)cc2)C(=O)N[C@@H](Cc2c[nH]c3ccccc23)C(=O)N1)C(N)=O gave an IC50 of about 6 µM (HCT-116 p53-/-; cytotoxicity).
CNC(=O)c1cc(Oc2ccc(NC(=O)c3cc(-c4cccc(COC(=O)CCC(=O)OC5OC6OC7(C)CCC8C(C)CCC(C5C)C68OO7)c4)ccn3)cc2)ccn1 (stereo not shown) has an IC50 of 8.73 µM (Hep3B; cell growth or viability, MTT; 72 h).
With COc1cccc2c1C(=O)c1c(O)c3c(c(O)c1C2=O)C[C@@](O)(C(=O)CO)C[C@@H]3O[C@H]1C[C@H](NC(=O)CCN2C(=O)CC(SC[C@H](N)C(=O)N3CCC[C@H]3C(=O)N[C@@H](CCCCN)C(=O)N[C@@H](CCCCN)C(=O)N[C@@H](CCCCN)C(=O)N[C@@H](CCCNC(=N)N)C(=O)N[C@@H](CCCCN)C(=O)N[C@H](C(N)=O)C(C)C)C2=O)[C@H](O)[C@H](C)O1 (stereo partly shown) the IC50 was 4.85 ± 0.83 µM (MCF7/ADR doxorubicin-resistant; CCK-8; 96 h, doxorubicin-equivalent dose).
CNC(=O)c1cc(Oc2ccc(NC(=O)c3ccc(-c4ccc(OC(=O)CCC(=O)OC5OC6OC7(C)CCC8C(C)CCC(C5C)C68OO7)cc4)cn3)cc2)ccn1 (stereo not shown) gave an IC50 of 3.18 µM (Huh-7; cell growth or viability, MTT; 72 h).
The IC50 of NC1CCCCC1N.O=C1[O][Pt]([O]C(=O)c2ccc(P(c3ccccc3)c3ccccc3)cc2)([O]C(=O)c2ccc(P(c3ccccc3)c3ccccc3)cc2)[O]C1=O.[Cl][Au].[Cl][Au] is reported as 5.2 µM (MDA-MB-157; cell growth or viability, resazurin; 72 h, 3D culture).
